Published values pooled from the literature.
Compare with care: the assays were run in different laboratories.
Target: Mitogen-activated protein kinase kinase kinase 5 (MAP3K5, Homo sapiens, UniProt Q99683)

COc1c(OCCCN2CCOCC2)ccc2c1N=C(NC(=O)c1cnc(N)nc1)N1CCN=C21 — remaining activity (kinase activity, inhibitor; 1 µM; baseline: untreated control): 99%
CS(=O)(=O)Nc1cccc(-c2csc3cnc(Nc4ccc(N5CCN(CCCCCOc6cccc7c6C(=O)N(C6CCC(=O)NC6=O)C7=O)CC5)cc4)nc23)c1 (centres unmarked) — inhibition (probe labelling, inhibitor, KiNativ chemoproteomics; MOLT-4; 1 µM): 2.14%
Nc1ncc2c(n1)-c1c([nH]c3ccc(C4=CCOCC4)cc13)CCC2 — remaining binding (binding, competition with immobilised ligand; 1 µM): 100%
CN1CC[C@@H](COc2cnc(C#N)cc2-c2ccn3nc(NC(=O)C4CC4)cc3c2)C1 — inhibition (enzyme activity, inhibitor; 1 µM): 7%
COc1cc(Nc2nc(C)cc(-c3cnn4nc(OC)ccc34)n2)cc(C(F)(F)F)c1 — remaining activity (inhibitor; 1 µM, ASK1; baseline: control): 80%
O=C=[N][Ru-4]123([n]4c5ccc(O)cc5c5c6c(c7cc(F)c[n+]1c7c54)C(=O)NC6=O)[S+]1CC[S+]2CC[S+]3CC1 (centres unmarked) — remaining activity (enzyme activity; 100 nM, human enzyme, with: 10 µM ATP; baseline: untreated): 104%
Nc1ncc(-c2cc(-c3cnn(CC(F)(F)F)c3)ncc2F)nc1C(=O)NC1CNCC(F)C1 (centres unmarked) — remaining activity (enzyme activity; 1 µM; baseline: DMSO control): 87.8%
CCN1CCN(Cc2ccc(C(=O)Nc3ccc(C)c(NCc4cnc5[nH]ccc5c4OC)c3)cc2C(F)(F)F)CC1 — remaining binding (binding, competition with immobilised ligand; 1 µM): 91%
C=CC(=O)N1Cc2nc(-c3cc(-c4cc(Cl)cnc4Cl)c(F)cc3F)n(-c3ccncn3)c2C1 — inhibition (cell-free assay, inhibitor; 1 µM): 10.7%
O=C(Cc1ccc(OCc2ccccc2)cc1)NC1(C(=O)O)CCN(C(=O)c2ccc(-c3cccc(Cl)c3)cc2)CC1 — activity vs control (enzyme activity, inhibitor; 10 µM): 114%
C=CC(=O)Nc1cc(-c2nn(C3CCN(CCNC(=O)[C@H](C)CCC45CC6CC(CC(C6)C4)C5)CC3)c3ncnc(N)c23)ccc1Oc1ccccc1 — inhibition (inhibitor, KiNativ profiling; biochemical; 2 µM): 20.6%
C=CC(=O)N1CCc2ccc(-n3c(=O)ccc4cnc5ccc(-c6cnn(C)c6)cc5c43)cc21 — remaining binding (KINOMEscan; 1 µM; baseline: DMSO control): 100%
NC(=O)[C@@H](O)C[C@H]1CCc2sc3ncnc(O[C@H]4CC[C@H](N5CCOCC5)CC4)c3c21 — inhibition (enzyme activity, inhibitor; 10 µM): 4%
Cc1nc2c(F)cc(-c3nc(Nc4ccc(CNC(=O)CCCCCCC(=O)NO)cc4)ncc3F)cc2n1C(C)C — inhibition (enzyme activity, inhibitor; 1 µM): 9%

A few entries again:
COc1cc(Nc2nc(C)cc(-c3cnn4nc(OC)ccc34)n2)cc(C(F)(F)F)c1 — remaining activity (inhibitor; 1 µM, ASK1; baseline: control): 80%
O=C=[N][Ru-4]123([n]4c5ccc(O)cc5c5c6c(c7cc(F)c[n+]1c7c54)C(=O)NC6=O)[S+]1CC[S+]2CC[S+]3CC1 (centres unmarked) — remaining activity (enzyme activity; 100 nM, human enzyme, with: 10 µM ATP; baseline: untreated): 104%
